Published values collected from several papers.
Lines come from different studies, so protocols differ. Values joined by “and” are separate records of one study, mostly repeats; a detail may differ. ± gives the spread as reported.
STUB1: E3 ubiquitin-protein ligase CHIP (STUB1, Homo sapiens, UniProt Q9UNE7)
WDR55: WD repeat-containing protein 55 (WDR55, Homo sapiens, UniProt Q9H6Y2)
TOP2A: DNA topoisomerase 2-alpha (TOP2A, Homo sapiens, UniProt P11388)
SLC6A6 Y138A: Sodium- and chloride-dependent taurine transporter (SLC6A6, Homo sapiens, UniProt P31641, Y138A)
AURKB: Aurora kinase B (AURKB, Homo sapiens, UniProt Q96GD4)
Protein kinase C-like 1: Protein kinase C-like 1 (Candida albicans, UniProt P43057)
GUK1: GUK1 (Homo sapiens, UniProt Q16774)
HTR7: 5-hydroxytryptamine receptor 7 (HTR7, Homo sapiens, UniProt P34969)

NS(=O)(=O)c1cc2c(cc1Cl)NC(C1CC3C=CC1C3)NS2(=O)=O (stereo not drawn) — dimer fraction (Gria2 (Rattus norvegicus, UniProt P19491, del528-650/N775S/S652T/V651G); SAXS; 0.15 mM, added: LBD 0.1 mM): 50.4%
CCCCC[C@H](O)/C=C/[C@H]1[C@H](O)CC(=O)[C@@H]1C/C=C\CCCC(=O)O — Emax (PTGER1 (Homo sapiens, UniProt P34995, L143A); IP1 accumulation, agonist; AD293; 1 h, EP1 L143A mutant): 38.3 ± 5.81%
O=C(O)C1CCCNC1 (stereo not drawn) — normalised MST signal (SLC6A6 (Homo sapiens, UniProt P31641, G62A); binding, microscale thermophoresis; 7.81 µM, room temperature, added: 50 nM labelled protein; higher = more binding): 0.201
CC1(C)CC2(C)OC(=O)NC2(C)c2ccccc21 (stereo not drawn) — fold enrichment (STUB1; binding, affinity selection mass spectrometry; baseline: other proteins in batch): 0.992
Cc1cnc(Nc2ccc(C(=O)NC3CCN(C(=O)COCCOCCOCC(=O)N4CCC(NC(=O)c5ccc(Nc6ncc(C)c(Nc7ccc(Cl)c(NS(=O)(=O)C(C)(C)C)c7)n6)cc5F)CC4)CC3)c(F)c2)nc1Nc1ccc(Cl)c(NS(=O)(=O)C(C)(C)C)c1 — selectivity ratio (human BRD4 and BRDT bromodomains; binding, BromoScan; baseline: Kd BRD4 over Kd BRDT): 8 fold
C=CC(=O)N1CCN(c2nc(OC[C@@H]3CCCN3C)nc3c(F)c(-c4nc(N)cc(C)c4C(F)(F)F)c(Cl)cc23)[C@@H](C)C1 — association rate constant (GTPase KRas, GDP-bound (KRAS, Homo sapiens, UniProt P01116, G12D); binding, surface plasmon resonance): 63800 ± 17000 M⁻¹ s⁻¹
CCCCC[S+]([O-])c1n[nH]c(N)n1 (stereo not drawn) — fold enrichment (WDR55; binding, affinity selection mass spectrometry; baseline: other proteins in batch): 1.35
C[C@H](O)c1cnc(NS(=O)(=O)c2ccc(Cl)c(Cl)c2)nc1 — Km (17-beta-hydroxysteroid dehydrogenase 13 (Homo sapiens, UniProt Q7Z5P4); substrate, NADH fluorescence): 36 µM
NC(=O)C1=CN([C@@H]2O[C@H](COP(=O)(O)OP(=O)(O)OC[C@H]3O[C@@H](n4cnc5c(N)ncnc54)[C@H](O)[C@@H]3O)[C@@H](O)[C@H]2O)C=CC1 — kcat (FSP1, ancestral; oxidase activity, substrate; added: atmospheric O2): 0.92 ± 0.08 s⁻¹
Nc1ncnc2c1ncn2[C@@H]1O[C@H](COP(=O)(O)CP(=O)(O)OP(=O)(O)O)[C@@H](O)[C@H]1O — specific binding (P2X purinoceptor 1 (P2RX1, Homo sapiens, UniProt P51575, R139A); saturation binding; HEK293; 103 nM): 4220 CCPM and 4380 CCPM
C=CC(=O)N1CCC(C(=O)NCC(=O)N2CCN(c3nc(-c4cnc(N)nc4C(F)F)nc(N4CCOCC4)n3)CC2)CC1 — remaining binding (MAP3K13 (Homo sapiens, UniProt O43283); KINOMEscan; 1 µM): 100%
CCCC[C@H](NC(C)=O)C(=O)N[C@@H](CO)C(=O)N[C@H](C(=O)N1CCC[C@H]1C(=O)N[C@@H](C)C(=O)N[C@@H](CCCNC(=N)N)C(=O)N[C@@H](CCCNC(=N)N)C(=O)N[C@@H](CCCNC(=N)N)C(=O)N[C@@H](CC(C)C)C(=O)N[C@@H](CCCC)C(=O)N[C@@H](CCCNC(=N)N)C(=O)N[C@@H](CC(=O)O)C(=O)N[C@@H](Cc1ccccc1)C(=O)N[C@@H](CCCCN)C(=O)N[C@@H](CCCNC(=N)N)C(=O)N[C@@H](CC(C)C)C(=O)N[C@@H](CCC(N)=O)C(N)=O)[C@@H](C)O — relative deuterium uptake (UBA1 (Homo sapiens, UniProt P22314); HDX-MS; 10 s, added: UBE1 at 1:1 molar ratio; baseline: undeuterated peptide): 13.6 Da and 13.8 Da and 13 Da
Cc1nc(CSc2nc(SCc3ccc(C(C)C)cc3)nc(=O)[nH]2)cs1 — relaxed DNA (TOP2A; DNA relaxation; 62.5 µM, replicate 2): 99.8%
CCN1CCC[C@H]1CNC(=O)c1c(O)c(Cl)cc(Cl)c1OC — log2 fold change (GPR37 (Homo sapiens, UniProt O15354); β-arrestin recruitment, TANGO luminescence; concentration not given; baseline: basal luminescence): 0.025
CC(C)OCCn1c(=S)[nH]c(=O)c2[nH]ccc21 — LDL lipid peroxidation (Myeloperoxidase (MPO, Homo sapiens, UniProt P05164); inhibitor, cholesteryl ester hydroperoxide; 3.333 µM; baseline: control): 10.7% and 13.7% and 17.9% and 22.1%
NCCS(=O)(=O)O — normalised MST signal (SLC6A6 Y138A; binding, microscale thermophoresis; 15.6 µM, room temperature, added: 50 nM labelled protein; higher = more binding): 0.00185
Cc1ncsc1-c1ccc([C@H](C)NC(=O)[C@@H]2C[C@@H](O)CN2C(=O)[C@@H](NC(=O)CCCCCCCCC(=O)N(CCO)CCCOc2ccc3c(Nc4cc(CC(=O)Nc5cccc(F)c5)[nH]n4)ncnc3c2)C(C)(C)C)cc1 — degradation (AURKB; degrader, Western blot; U-937; 1 µM, 24 h): > 60%
Oc1ccccc1-c1n[nH]cc1-c1ccnc2ccccc12 — log2 fold change (Protein kinase C-like 1; kinase binding, MIB/MS competition; Candida albicans lysate; 10 µM; baseline: DMSO, negative = stronger binding): 0.24
O=S(=O)(O)C1CCNCC1 — fraction bound (SLC6A6 Y138A; binding, microscale thermophoresis; 30.5 nM, fitted curve; higher = more binding): 0
[Cl-].[Na+] — reaction velocity (GUK1; enzyme activity, NADH-coupled; 150 mM): 0.017 µM/s and -0.00707 µM/s and -0.000699 µM/s
O=C(CCCCCCC(=O)Nc1ccccc1)NO — binding stoichiometry (HDAC8 (Homo sapiens, UniProt Q9BY41); ITC; Tris-HCl buffer; concentration not given, 298 K): 0.9
Cc1cc(-c2ccnc3[nH]cc(F)c23)cc(F)c1[C@@]1(O)[C@H](C)CN(C(=O)CN)C[C@@H]1C — probe labelling inhibition (AURKB; ATP/ADP probe binding, KiNativ; HEK293T lysate; 10 µM, Lys1 peptide): 34.8%
O=C(c1ccc(C(=O)N2CCC(N3CCCC3)CC2)c(Nc2ccccc2)c1)N1CCC(N2CCCC2)CC1 — diffusion coefficient (Lethal(3)malignant brain tumor-like protein 3, MBT domains (Homo sapiens, UniProt Q96JM7); FRAP; human cells; 0.5 µM): 0.296 µm2/s
Cc1cccc(N2CC(C(=O)O)CC2=O)c1 (stereo not drawn) — log fold enrichment (Histone acetyltransferase type B catalytic subunit (Homo sapiens, UniProt O14929); binding, affinity selection mass spectrometry; baseline: other proteins in batch): 0.0418
Cc1ccc(C[C@H](NC(=O)OC(C)(C)C)C(=O)NC/C=C/S(=O)(=O)c2ccccc2)cc1 — kinact/Ki (Cathepsin B (CTSB, Homo sapiens, UniProt P07858); inhibitor; added: Z-Arg-Arg-pNA): 161 M⁻¹ s⁻¹
CC(=O)OCC[N+](C)(C)C — current (CHRNB4/CHRNA6 (Homo sapiens, UniProt P30926+Q15825, E185W); two-electrode voltage clamp; Xenopus oocytes; α6β4 E155W mutant; baseline: wild type): decreased
Cc1ccc(N2CC(C(N)=O)CC2=O)cc1 (stereo not drawn) — log fold enrichment (WDR55; binding, affinity selection mass spectrometry; baseline: other proteins in batch): -0.00394
CCCCC[C@H](O)/C=C/[C@H]1C(=O)C[C@H](O)[C@@H]1C/C=C\CCCC(=O)O — activation (PTGDR (Homo sapiens, UniProt Q13258, D262A); agonist; 10 µM): 91.6%
C=C(CC(=O)O)C(=O)O — thermal shift (Uncharacterized protein (Pelagibacter ubique, UniProt Q4FKX4); differential scanning fluorimetry; Candidatus Pelagibacter ubique; in-house screen): 9.04 °C
C[C@@H](O)CNC(C)(C)CC(=O)N[C@@H]1CCc2ccccc2N(Cc2ccc(-c3ccccc3-c3nn[nH]n3)cc2)C1=O — Emax (GHSR (Homo sapiens, UniProt Q92847); SRF-RE reporter gene; HEK293T): 111 ± 2%
[O-][S+]1CCCCS1 (stereo not drawn) — SOD1 monomer fraction (SOD1 (Homo sapiens, UniProt P00441, G94A); LC-MS; human whole blood; 100 µM, 1 h, 37 °C): 69.7%
CC1CCCN(C(=O)c2cc3ncccn3n2)C1 (stereo not drawn) — fold enrichment (STUB1; binding, affinity selection mass spectrometry; baseline: other proteins in batch): 1.87
Nc1ccc2cc3ccc(N)cc3nc2c1 — binding enthalpy (Chymotrypsinogen A, activated (alpha-chymotrypsin) (Bos taurus, UniProt P00766); isothermal titration calorimetry; concentration not given, 25 °C, added: 0.5 M TMAO): -34 ± 0.884 kcal/mol
c1ccc(-c2n[nH]cc2-c2ccnc3ccccc23)nc1 — log2 fold change (Protein kinase C-like 1; kinase binding, competitor, MIB/MS competition, item: PKC1; Candida albicans cell lysate; 1 µM; baseline: DMSO): 1.32
Nc1ccc(C(=O)O)cc1 — current density (BEST1, with wild-type BEST1 (Homo sapiens, UniProt O76090, R218H); ion current, whole-cell patch clamp; HEK293 co-expressing mutant and wild-type; concentration not given, voltage -20 mV): -4.64 pA/pF and -1.85 pA/pF and -5.09 pA/pF and -3.11 pA/pF and -6.88 pA/pF and -3.1 pA/pF and -0.86 pA/pF and -0.9 pA/pF
Nc1ncnc2c1ncn2[C@@H]1O[C@H](CO[P@](=O)(O)O[P@](=O)(O)O[P@@](=O)(O)S)[C@@H](O)[C@H]1O — ΔH (GUK1; binding, isothermal titration calorimetry; molar ratio 1.955, fitted curve): -0.498 kcal/mol
O=C(COP(=O)(O)O)[C@@H](O)[C@H](O)[C@H](O)COP(=O)(O)O — thermal stability ratio (Actin, aortic smooth muscle (ACTA2, Homo sapiens, UniProt P62736); thermal proteome profiling, item: ACTA2; HepG2 cell lysate; concentration not given, 57 over 37 °C; baseline: compound over control): 0.583 and 0.476 and 0.8
CC[C@@H]1[C@H](F)C(=O)N[C@@H]1COc1nccc2cc(C(N)=O)c(OC)cc12 — inhibition (GRK2 (Homo sapiens, UniProt P25098); ATP-site probe binding, ActivX profiling, item: BARK1; THP-1 cell lysate; 0.2 mM, Lys2 site): 9.7%
COc1cc(Nc2ncc3c(n2)-c2ccc(Cl)cc2C(c2c(F)cccc2OC)=NC3)ccc1C(=O)O — remaining activity (PDK1; kinase activity; 1 µM): 72%
N[C@@H](CCC(=O)O)C(=O)O — Emax (uncharacterized protein (Ixodes scapularis, UniProt A0A0N9E2I2); ion current, agonist; Xenopus oocytes; baseline: 1 mM compound response): 135 ± 7%
COc1cccc(OC[C@H]2CN(CCN3CCc4ccccc43)CCO2)c1 — inhibition (HTR7; radioligand binding; concentration not given, added: [3H]LSD): 45.8%
C[C@]12C[C@H](O)[C@H]3[C@@H](CCC4=CC(=O)CC[C@@]43C)[C@@H]1CC[C@@H]2C(=O)CO — kon (CYP11B2 (Homo sapiens, UniProt P19099); nanodiscs; 25 °C, fast phase): 70000 ± 10000 M⁻¹ s⁻¹
O=C1c2ccccc2CCN1CCCCN1CCN(c2cccc(Cl)c2Cl)CC1 — inhibition (HTR7; radioligand binding; concentration not given, added: [3H]LSD): 100%
O=c1nc(SCc2cc(F)cc(C(F)(F)F)c2)nc(SCc2ccc3sccc3c2)[nH]1 — relaxed DNA (TOP2A; DNA relaxation; 62.5 µM, replicate 1): 0%
Cc1ccc(OC[C@@H]2CN(CCN3CCc4ccccc43)CCO2)cn1 — inhibition (HTR2A (Homo sapiens, UniProt P28223); radioligand binding; concentration not given, added: [3H]ketanserin): 27.8%
Nc1nc2c(ncn2[C@@H]2O[C@H](COP(=O)(O)O)[C@@H](O)[C@H]2O)c(=O)[nH]1 — reaction velocity (GUK1; enzyme activity, NADH-coupled; 31.25 µM, added: NaCl 10 mM): 0.0466 µM/s and 0.0377 µM/s and 0.0443 µM/s
c1cncc(OC[C@H]2CN(CCN3CCc4ccccc43)CCO2)c1 — inhibition (HTR2C (Homo sapiens, UniProt P28335); radioligand binding; concentration not given, added: [3H]mesulergine): 24.2%
C=CC(=O)N1CCC(COCC(=O)N2CCN(c3nc(-c4cnc(N)nc4C(F)F)nc(N4CCOC[C@@H]4C)n3)CC2)CC1 — remaining binding (PIKFYVE (Homo sapiens, UniProt Q9Y2I7); KINOMEscan; 1 µM; baseline: DMSO control): 71%

A few entries again:
c1cncc(OC[C@H]2CN(CCN3CCc4ccccc43)CCO2)c1 — inhibition (HTR2C (Homo sapiens, UniProt P28335); radioligand binding; concentration not given, added: [3H]mesulergine): 24.2%
CCCCC[C@H](O)/C=C/[C@H]1[C@H](O)CC(=O)[C@@H]1C/C=C\CCCC(=O)O — Emax (PTGER1 (Homo sapiens, UniProt P34995, L143A); IP1 accumulation, agonist; AD293; 1 h, EP1 L143A mutant): 38.3 ± 5.81%
Cc1ncsc1-c1ccc([C@H](C)NC(=O)[C@@H]2C[C@@H](O)CN2C(=O)[C@@H](NC(=O)CCCCCCCCC(=O)N(CCO)CCCOc2ccc3c(Nc4cc(CC(=O)Nc5cccc(F)c5)[nH]n4)ncnc3c2)C(C)(C)C)cc1 — degradation (AURKB; degrader, Western blot; U-937; 1 µM, 24 h): > 60%
